Measurements pooled from the literature.
Every numbered part comes from another study and shows a few of its results, in no order. Positions count from the first letter of the parent shown.

Sample 1 — target: CRIPT, C-terminal peptide; technique: DHFR complementation, deep sequencing; matrix: yeast; reference: wild type; reading: higher = weaker binding
Notes: single substitutions, model-inferred values
Starting sequence: ERBIN, PDZ domain 1 (human); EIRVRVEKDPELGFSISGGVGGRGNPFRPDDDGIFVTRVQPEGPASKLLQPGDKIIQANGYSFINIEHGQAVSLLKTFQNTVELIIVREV; partner TKNYKQTSV
Substitution | binding free energy change [kcal/mol]
Q79D | -0.011
K76C | 0.489
P41W | 0.492
E89T | 0.0182
E89C | 0.0761
V4Y | 0.0636
V6S | 0.803
G33D | 0.506
Q57F | 0.0882
V82N | 1.56
E1C | 0.238
K76P | 1.6
L49G | 0.821
G22D | -0.334
I34G | 0.295
L49Y | 0.0325
H68G | 1.44
R88N | 0.413
V90M | -0.0926

Sample 2 — technique: DHFR PCA, deep sequencing; matrix: yeast; together with: (+)-ABA 0.39 µM; reference: wild-type fitted maximum; reading: higher = stronger binding
Target: ABI1, truncated, D143A, DHFR fusion (Arabidopsis thaliana)
Notes: methotrexate growth selection, single substitutions
Starting sequence: PYL1, truncated, DHFR fusion (Arabidopsis thaliana); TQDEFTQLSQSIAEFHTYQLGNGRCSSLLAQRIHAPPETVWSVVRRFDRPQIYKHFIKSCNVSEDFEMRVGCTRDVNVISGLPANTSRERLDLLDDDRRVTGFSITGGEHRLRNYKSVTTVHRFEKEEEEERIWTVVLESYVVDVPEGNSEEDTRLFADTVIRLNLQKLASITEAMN
Substitution | relative binding score [%]
V143T | 20.9
A170R | 45.9
I33K | -5.87
V161Q | 38.8
F56C | 5.4
P50W | -1.53
E147G | -15.7
E174F | -38.8
N77A | 57.2
N22R | 49.1
T6K | 60.2
I172L | 29.9
V70Q | 6.51
I52W | 14.8
Y115F | 34.5
K54V | -15.4
V143G | -10.5
A158F | -8.1
P83E | 0.946
E89K | -3.08
L164H | 39.3
V118K | 19.7
S87R | 61.2
T6S | 51.5

Sample 3 — technique: protein binding microarray; form: double-stranded DNA, one strand shown; matrix: in vitro; concentration: not given; reference: not given; reading: higher = stronger binding
Target: Histone acetyltransferase KAT6A, both winged helices, GST fusion (KAT6A, Homo sapiens, UniProt Q92794, residues 1-181)
Notes: 8-mer, flanks averaged, mean of 2 arrays, mostly near background
Residues (chain): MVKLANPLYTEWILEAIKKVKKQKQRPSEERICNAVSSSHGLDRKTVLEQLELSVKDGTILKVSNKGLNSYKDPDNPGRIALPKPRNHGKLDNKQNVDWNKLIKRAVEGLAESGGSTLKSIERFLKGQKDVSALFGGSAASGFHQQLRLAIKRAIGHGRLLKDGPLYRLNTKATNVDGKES
Strand | E-score
CAACACTG | -0.1
TGCTCAAA | -0.139
CTCGTCGA | -0.236
CTCAATGA | -0.19
CATTATAC | -0.045
TACATCGA | -0.1
AACTGATA | -0.00156
AGGTAACT | -0.217
CCTTAATC | -0.0835
GCGAGGCA | 0.0402
ACCCCGGC | 0.176
AAACTCCG | 0.107
ACAGGTGG | -0.0956
GCCGGAAC | 0.254
ACTGGGAT | -0.207
TATTATCA | -0.106
GGCAGGGA | -0.0245
AGCTCTGC | -0.141
ATTACACG | 0.0587
CTGTATCA | 0.0332
GAGCCAGC | -0.0519
CAGGGTAA | -0.145
AGTTTAAG | -0.171
CTCAAAAA | -0.129
GCAGTCGC | 0.159

Sample 4 — technique: protein-binding microarray; form: double-stranded DNA, one strand shown; matrix: in vitro; concentration: 250 nM; notes: 60-bp whole probe; together with: salmon DNA 0.4 mg/ml; reference: random background probes; reading: higher = stronger binding; all sequences stand within: GCCTAGCAC … GTCTTGATTCGCTTGACGCTGCTG
Target: Interferon regulatory factor 5, full length, phosphomimetic (IRF5, Homo sapiens, UniProt Q13568-2, residues 1-514, K96S/S451D/S453D/S456D/S462D)
Strand | log fluorescence [z-score]
TGCGGTTCAGATATAGGATAGTGCTAG | 0.335
TTAGATCTCACTTTCGATTAGTGCTAG | 9.7
TAAGGTCTCCTTTTCCTTTAGTGCTAG | 0.208
GACGGTTTCGGGCCTGGGGACGTGCTA | 4.1
GACGGACTGCTTATCGTGACGTGCTAG | -0.313
TTAGATTTCGGGTTTCGATGAGTGCTA | 7.92
GACGGTTTCGACTTGCGGGACGTGCTA | 5.88
TGAGCTACAGATGAGGCTCGGTGCTAG | -0.568
GACGATATCAGTTCCGAGACGTGCTAG | 1.23
GACGATCTCAGACTGGCGACGTGCTAG | -0.192
TCCTGCTGTACCCCTAGGGCGTGCTAG | -0.433
CCCGCTTTTTTTTTTTTTTTGTGCTAG | 0.999
GTCGGTTTCCTTTCCCTGACGTGCTAG | 2.01
TTAGGACTGGTTTTCCTTTAGTGCTAG | 0.355
TTAGGGTCCCTTTTCCTTTAGTGCTAG | -0.0206
TTATAACTGAGTCTCGATTAGTGCTAG | 0.979
GGGTTCAAGAAGTAGGAGAAGTGCTAG | -0.0734
TTAGGTTTCCTTTTTCTTTAGTGCTAG | 1.59
GACGGTATCCTTATCCGGACGTGCTAG | 0.0962
GACCGTCTCGGTCTCGGGACGTGCTAG | -0.0836
GACGATAGCGGGTTTCGAGACGTGCTA | 1.81

Sample 5 — target: TEF, bZIP domain (human); technique: DHFR protein complementation; matrix: yeast; reference: wild-type JUN-FOS pair; reading: higher = stronger binding
Notes: single substitutions, most at no-binding floor
Starting sequence: JUN, bZIP domain (human); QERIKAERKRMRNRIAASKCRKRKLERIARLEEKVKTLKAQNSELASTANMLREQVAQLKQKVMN; partner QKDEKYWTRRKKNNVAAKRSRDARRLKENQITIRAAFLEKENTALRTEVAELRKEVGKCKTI
Substitution | binding fitness
L45Y | -1.53 natural log
E44Y | -1.48 natural log
K34L | -1.19 natural log
T37Q | -1.43 natural log
L31N | -1.55 natural log
E44K | -1.52 natural log
S47G | -1.38 natural log
M51G | -1.51 natural log
V56W | -1.51 natural log
A29K | -1.55 natural log
A57Q | -1.46 natural log
L45N | -1.49 natural log
L45A | -1.59 natural log
T48L | -1.49 natural log
N42L | -1.44 natural log
L31Q | -1.51 natural log
K34V | -1.27 natural log
L52T | -1.48 natural log
M51P | -1.56 natural log
V56P | -1.53 natural log
L59G | -1.21 natural log
R30A | -1.25 natural log
E33T | -1.3 natural log
Q55E | -1.44 natural log
A40E | -1.44 natural log

Sample 6 — target: CCNA2, cyclin fold, Cln2 fusion (human); technique: yeast growth competition, sequencing; matrix: yeast; notes: weak parent motif; reference: not given; reading: higher = stronger binding
Starting sequence: WEE2 docking peptide (human); KELRQKLNFSYCE
Substitution | normalised enrichment score
KEARQKLNFSYCE [L3A] | 2.91
KELRQKANFSYCE [L7A] | 0.287
KALRQKLNFSYCE [E2A] | 1.47
KELRQKLNFAYCE [S10A] | 0.63
KELRQKLNFSYAE [C12A] | 0.579
KELRQKLNFSACE [Y11A] | 1.16
KELRQKLAFSYCE [N8A] | 0.532

A few entries again (sample 3):
Strand | E-score
TACATCGA | -0.1
AACTGATA | -0.00156
AGGTAACT | -0.217
CCTTAATC | -0.0835
GCGAGGCA | 0.0402
ACCCCGGC | 0.176
AAACTCCG | 0.107
ACAGGTGG | -0.0956
GCCGGAAC | 0.254
ACTGGGAT | -0.207
TATTATCA | -0.106
GGCAGGGA | -0.0245
AGCTCTGC | -0.141
ATTACACG | 0.0587
CTGTATCA | 0.0332
GAGCCAGC | -0.0519
CAGGGTAA | -0.145
AGTTTAAG | -0.171
